Experimental data pooled from the literature.
Values joined by “and” are separate records of one study, mostly repeats; a detail may differ. ± marks the error that the study gave.
MDM2: E3 ubiquitin-protein ligase Mdm2 (MDM2, Homo sapiens, UniProt Q00987)
Sequence of UniProt Q00987 (whole entry, looked up): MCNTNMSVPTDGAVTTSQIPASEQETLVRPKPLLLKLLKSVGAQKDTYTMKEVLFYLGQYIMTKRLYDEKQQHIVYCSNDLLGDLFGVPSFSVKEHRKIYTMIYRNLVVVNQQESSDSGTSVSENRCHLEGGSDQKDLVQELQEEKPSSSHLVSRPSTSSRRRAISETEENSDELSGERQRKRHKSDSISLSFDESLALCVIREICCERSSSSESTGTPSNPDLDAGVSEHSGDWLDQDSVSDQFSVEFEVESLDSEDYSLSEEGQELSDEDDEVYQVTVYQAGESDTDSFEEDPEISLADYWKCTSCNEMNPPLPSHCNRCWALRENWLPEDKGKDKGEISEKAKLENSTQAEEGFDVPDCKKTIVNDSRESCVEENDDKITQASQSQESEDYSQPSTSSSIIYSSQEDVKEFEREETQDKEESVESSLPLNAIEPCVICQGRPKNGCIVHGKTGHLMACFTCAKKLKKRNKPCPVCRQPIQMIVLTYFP
Gria2: Glutamate receptor 2 (Gria2, Rattus norvegicus, UniProt P19491)
Sequence of UniProt P19491 (whole entry, looked up): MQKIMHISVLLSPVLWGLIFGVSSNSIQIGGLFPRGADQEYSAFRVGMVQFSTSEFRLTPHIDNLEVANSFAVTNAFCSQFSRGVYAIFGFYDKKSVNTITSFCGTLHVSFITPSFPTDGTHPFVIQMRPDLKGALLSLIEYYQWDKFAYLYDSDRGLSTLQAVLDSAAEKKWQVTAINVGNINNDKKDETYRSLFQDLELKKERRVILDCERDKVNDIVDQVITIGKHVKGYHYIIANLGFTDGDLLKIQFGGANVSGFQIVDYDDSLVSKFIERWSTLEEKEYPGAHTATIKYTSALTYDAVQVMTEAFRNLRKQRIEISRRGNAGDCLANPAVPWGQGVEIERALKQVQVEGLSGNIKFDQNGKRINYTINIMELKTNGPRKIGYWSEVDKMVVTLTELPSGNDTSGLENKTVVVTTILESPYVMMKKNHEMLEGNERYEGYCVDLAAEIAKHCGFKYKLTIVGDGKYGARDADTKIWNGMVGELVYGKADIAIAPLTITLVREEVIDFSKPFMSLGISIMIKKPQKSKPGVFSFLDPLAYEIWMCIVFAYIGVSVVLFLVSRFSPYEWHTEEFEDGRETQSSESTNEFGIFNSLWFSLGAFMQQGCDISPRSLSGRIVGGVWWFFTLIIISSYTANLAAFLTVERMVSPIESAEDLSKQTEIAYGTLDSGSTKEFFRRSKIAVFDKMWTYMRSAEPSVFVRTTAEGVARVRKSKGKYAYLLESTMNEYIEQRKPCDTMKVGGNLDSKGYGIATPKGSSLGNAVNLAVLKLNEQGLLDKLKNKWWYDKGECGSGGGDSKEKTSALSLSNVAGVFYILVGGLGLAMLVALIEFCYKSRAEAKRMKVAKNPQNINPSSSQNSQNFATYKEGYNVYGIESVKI
CASP7: Caspase-7 (CASP7, Homo sapiens, UniProt P55210)
Sequence of UniProt P07437 (whole entry, looked up): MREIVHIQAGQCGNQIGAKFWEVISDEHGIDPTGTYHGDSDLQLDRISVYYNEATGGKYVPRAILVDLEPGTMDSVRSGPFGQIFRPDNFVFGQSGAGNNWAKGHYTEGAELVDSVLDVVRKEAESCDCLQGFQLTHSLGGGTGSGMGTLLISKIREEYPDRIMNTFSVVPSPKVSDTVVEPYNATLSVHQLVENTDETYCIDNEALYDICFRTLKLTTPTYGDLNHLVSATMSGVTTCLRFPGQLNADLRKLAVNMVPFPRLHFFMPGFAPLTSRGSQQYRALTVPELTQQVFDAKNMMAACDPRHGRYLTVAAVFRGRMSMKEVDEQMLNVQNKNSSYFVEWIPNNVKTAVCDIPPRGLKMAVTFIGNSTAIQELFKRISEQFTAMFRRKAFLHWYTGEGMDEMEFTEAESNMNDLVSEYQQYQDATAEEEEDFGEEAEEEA
Sequence of UniProt P55210 (whole entry, looked up): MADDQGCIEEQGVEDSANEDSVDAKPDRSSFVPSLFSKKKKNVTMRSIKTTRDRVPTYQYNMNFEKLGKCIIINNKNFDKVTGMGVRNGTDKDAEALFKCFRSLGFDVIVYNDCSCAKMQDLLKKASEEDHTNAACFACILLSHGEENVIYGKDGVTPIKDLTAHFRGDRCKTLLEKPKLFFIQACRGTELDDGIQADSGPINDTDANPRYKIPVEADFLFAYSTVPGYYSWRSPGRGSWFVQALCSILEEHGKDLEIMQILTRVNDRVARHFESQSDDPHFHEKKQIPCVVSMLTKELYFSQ
Sequence of UniProt P30958 (whole entry, looked up): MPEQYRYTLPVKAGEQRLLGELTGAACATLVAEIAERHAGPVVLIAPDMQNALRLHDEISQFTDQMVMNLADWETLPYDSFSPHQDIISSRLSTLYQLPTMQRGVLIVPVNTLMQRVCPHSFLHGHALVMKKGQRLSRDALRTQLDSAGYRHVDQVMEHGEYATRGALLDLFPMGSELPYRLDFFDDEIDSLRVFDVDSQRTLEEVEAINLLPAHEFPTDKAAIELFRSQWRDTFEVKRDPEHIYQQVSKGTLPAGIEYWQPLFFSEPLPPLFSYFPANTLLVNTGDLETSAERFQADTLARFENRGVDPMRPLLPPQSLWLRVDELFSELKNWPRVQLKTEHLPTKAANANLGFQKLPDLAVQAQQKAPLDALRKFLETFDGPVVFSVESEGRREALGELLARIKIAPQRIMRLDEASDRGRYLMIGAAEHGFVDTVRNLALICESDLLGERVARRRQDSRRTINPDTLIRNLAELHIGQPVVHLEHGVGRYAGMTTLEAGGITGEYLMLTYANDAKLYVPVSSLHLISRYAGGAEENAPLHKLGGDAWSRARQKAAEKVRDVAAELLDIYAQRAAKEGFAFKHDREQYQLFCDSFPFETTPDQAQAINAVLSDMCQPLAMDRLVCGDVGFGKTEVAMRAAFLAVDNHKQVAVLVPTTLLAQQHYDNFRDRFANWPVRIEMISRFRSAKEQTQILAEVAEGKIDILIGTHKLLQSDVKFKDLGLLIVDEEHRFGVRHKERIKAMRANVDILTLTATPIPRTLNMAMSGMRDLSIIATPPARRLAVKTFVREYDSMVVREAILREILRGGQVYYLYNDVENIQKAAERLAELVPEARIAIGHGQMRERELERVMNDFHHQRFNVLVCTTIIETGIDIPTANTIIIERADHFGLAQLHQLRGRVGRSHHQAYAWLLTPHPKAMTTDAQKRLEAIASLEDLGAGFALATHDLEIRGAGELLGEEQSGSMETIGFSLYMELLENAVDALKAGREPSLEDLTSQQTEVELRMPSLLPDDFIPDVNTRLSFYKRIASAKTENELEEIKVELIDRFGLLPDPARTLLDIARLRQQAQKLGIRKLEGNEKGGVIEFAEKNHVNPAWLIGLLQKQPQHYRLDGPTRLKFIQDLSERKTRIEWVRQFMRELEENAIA
Sequence of UniProt O76041 (whole entry, looked up): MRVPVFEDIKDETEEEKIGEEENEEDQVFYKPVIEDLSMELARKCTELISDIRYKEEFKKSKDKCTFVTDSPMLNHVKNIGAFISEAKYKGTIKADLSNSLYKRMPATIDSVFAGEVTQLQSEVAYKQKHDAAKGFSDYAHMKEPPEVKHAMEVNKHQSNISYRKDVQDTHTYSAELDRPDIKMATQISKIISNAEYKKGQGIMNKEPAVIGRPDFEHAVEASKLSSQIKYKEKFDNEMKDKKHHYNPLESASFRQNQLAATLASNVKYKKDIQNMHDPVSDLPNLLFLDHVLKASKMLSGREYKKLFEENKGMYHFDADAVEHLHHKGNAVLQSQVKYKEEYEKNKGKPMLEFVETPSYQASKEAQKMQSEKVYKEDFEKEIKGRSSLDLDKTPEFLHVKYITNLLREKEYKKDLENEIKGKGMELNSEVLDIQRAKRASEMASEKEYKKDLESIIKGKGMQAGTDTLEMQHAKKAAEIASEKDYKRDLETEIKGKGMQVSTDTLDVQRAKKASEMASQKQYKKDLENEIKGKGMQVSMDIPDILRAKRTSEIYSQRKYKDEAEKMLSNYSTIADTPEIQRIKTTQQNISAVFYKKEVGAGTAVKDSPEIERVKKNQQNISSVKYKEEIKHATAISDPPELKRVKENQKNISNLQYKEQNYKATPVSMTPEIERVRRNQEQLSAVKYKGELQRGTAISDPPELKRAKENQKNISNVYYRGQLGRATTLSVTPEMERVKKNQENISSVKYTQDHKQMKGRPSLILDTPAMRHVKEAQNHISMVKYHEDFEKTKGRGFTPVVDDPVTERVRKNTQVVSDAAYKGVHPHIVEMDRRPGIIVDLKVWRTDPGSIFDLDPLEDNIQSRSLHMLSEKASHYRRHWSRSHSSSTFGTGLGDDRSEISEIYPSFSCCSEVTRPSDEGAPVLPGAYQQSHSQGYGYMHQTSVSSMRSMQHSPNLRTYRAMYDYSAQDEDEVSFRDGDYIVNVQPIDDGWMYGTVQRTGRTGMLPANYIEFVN
Sequence of UniProt P37802 (whole entry, looked up): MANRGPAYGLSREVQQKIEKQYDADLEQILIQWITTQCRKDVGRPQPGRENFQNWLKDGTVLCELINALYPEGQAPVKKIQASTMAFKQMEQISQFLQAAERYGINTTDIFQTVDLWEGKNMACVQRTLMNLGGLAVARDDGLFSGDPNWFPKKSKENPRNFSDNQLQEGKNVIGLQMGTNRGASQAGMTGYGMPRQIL
Sequence of UniProt P13346 (whole entry, unmodified, looked up): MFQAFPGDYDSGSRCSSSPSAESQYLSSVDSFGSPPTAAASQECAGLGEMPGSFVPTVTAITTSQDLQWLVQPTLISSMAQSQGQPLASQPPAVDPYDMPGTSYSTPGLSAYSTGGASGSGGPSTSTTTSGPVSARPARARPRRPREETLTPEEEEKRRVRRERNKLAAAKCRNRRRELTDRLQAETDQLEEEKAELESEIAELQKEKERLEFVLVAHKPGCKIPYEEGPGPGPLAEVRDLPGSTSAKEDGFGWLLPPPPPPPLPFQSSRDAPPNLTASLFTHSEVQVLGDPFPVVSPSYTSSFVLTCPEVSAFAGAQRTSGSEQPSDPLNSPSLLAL

| Structure (SMILES) | target or system | assay | test system | conditions | how to read | measurement | result |
| --- | --- | --- | --- | --- | --- | --- | --- |
| O=C(Nc1cnccc1-c1ccc([18F])nc1)c1ccnc(NC(=O)C2CC2)c1 | – | PET imaging | FVB/NJ mice, both sexes, liver | intravenous, 60 min, with: tariquidar 15 mg/kg iv, ≥2 h before | – | median SUV | 7.9 |
| N#CN1CC[C@H](C(=O)Nc2nc3c(s2)CN(C(=O)Cn2cc(CNC(=O)CCCC[C@@H]4SC[C@@H]5NC(=O)N[C@@H]54)nn2)CC3)C1 | Tubulin beta-5 chain (TUBB, Homo sapiens, UniProt P07437) | probe binding, affinity probe, neutravidin pull-down LC-MS/MS | HEK293T, cell lysate | 5 µM, 1 h, single replicate, unit not given | higher = more pulled down | iBAQ abundance | 1.12e+08 and 1.25e+08 and 2.84e+08 |
| CC[C@H](C)[C@H](NC(=O)[C@H](CO)NC(=O)[C@H](CO)NC(=O)[C@H](CCC(=O)O)NC(=O)[C@H](CCC(=O)O)NC(=O)[C@H](CCCCN)NC(=O)[C@H](CO)NC(=O)[C@@H](NC(=O)[C@H](CO)NC(=O)[C@H](CC(C)C)NC(=O)[C@H](Cc1ccccc1)NC(=O)[C@H](CCCNC(=N)N)NC(=O)[C@H](C)NC(=O)[C@H](Cc1ccccc1)NC(=O)[C@H](Cc1ccccc1)NC(=O)[C@@H]1CCCN1C(=O)[C@H](CC(C)C)NC(=O)[C@H](C)NC(=O)[C@H](CCCCN)NC(=O)CNC(=O)[C@H](CCC(N)=O)NC(=O)[C@H](CCC(N)=O)NC(=O)[C@H](CC(=O)O)NC(=O)[C@H](CC(N)=O)NC(=O)[C@@H]1CCCN1C(=O)[C@H](Cc1ccc(O)cc1)NC(=O)[C@H](C)NC(=O)[C@@H](N)CCSC)C(C)C)C(=O)N[C@@H](CCCCN)C(=O)N[C@@H](CO)C(=O)N1CCC[C@H]1C(=O)N[C@@H](CO)C(=O)N1CCC[C@H]1C(=O)N[C@@H](CC(=O)O)C(=O)N[C@@H](Cc1c[nH]cn1)C(=O)N[C@@H](CCC(=O)O)C(=O)N[C@H](C(=O)N[C@@H](CO)C(=O)N[C@@H]1C(=O)N[C@@H](CCCNC(=N)N)C(=O)N[C@@H](CCCCN)C(=O)N[C@@H](Cc2ccc(O)cc2)C(=O)N2CCC[C@H]2C(=O)N[C@H]2COC(=O)CC[C@@H](C(=O)N[C@@H](CCC(=O)O)C(=O)N[C@@H](Cc3c[nH]c4ccccc34)C(=O)O)NC(=O)[C@H](Cc3c[nH]c4ccccc34)NC(=O)[C@H](CC(=O)O[C@@H]1C)NC2=O)[C@@H](C)CC | uncharacterized protein (Microcystis aeruginosa MRC, UniProt B2G3C9) | isothermal titration calorimetry | – | concentration not given, pH 8.0, 25 °C | – | binding stoichiometry | 1.05 ± 0.09 |
| C=CC(=O)Nc1cccc(Cn2ncc3cnc(Nc4cnn(CCOC)c4)nc32)c1 | TESK1 human | binding, KINOMEscan | – | 100 nM | lower = stronger binding | percent of control | 100% |
| C[C@](O)(c1ccccc1)c1cn(C[C@H](NC(=O)OCC2c3ccccc3-c3ccccc32)C(=O)O)nn1 | MDM2 | thermal stability, DSF | – | 30 µM | – | ΔTm | 2.5 °C |
| CCCCCC=CC=C1C(=O)C=CC1CC=CCCCC(=O)O (stereo not drawn) | Condensin complex subunit 1 (Homo sapiens, UniProt Q15021) | competitive isoTOP-ABPP, refers to: NCAPD2 cysteine peptide | Ramos soluble proteome | 100 µM, with: iodoacetamide probe | reference: DMSO over compound-treated, higher = stronger cysteine blockade | isoTOP-ABPP competition ratio | 3.3 |
| CCOC(=O)[C@](CC)(CCCSCCOCCOCCN)NC(=O)c1ccc(C2CC2)c(Cc2ccc(F)cc2)n1 | Cannabinoid receptor 2 (CNR2, Homo sapiens, UniProt P34972) | radioligand binding | – | – | reference: CB1 over CB2 (human) | Ki ratio | 23 |
| O=C(Nc1cccc(N2CCNCC2)c1)c1cc(-c2ccccc2)n(-c2ccccc2)n1 | Genome polyprotein, NS2B-NS3 protease (dengue virus type 2, UniProt P29990) | enzyme activity, fluorogenic AMC substrate | – | 50 µM | – | inhibition | 94% |
| N#Cc1cnc2sc(C(=O)O)cc2c1N1CCc2[nH]nc(C(=O)N[C@@H](CC(=O)NCCOCCN3CCOCC3)c3cccc(Br)c3)c2C1 | Interleukin-1 receptor-like 2 (IL1RL2, Homo sapiens, UniProt Q9HB29) | reporter gene (SEAP), inhibitor, HEK-Blue IL-36R reporter | HEK-Blue IL-36R cells | 11.11 µM, 6 h, with: IL36G 0.01 ng/mL | – | remaining activity | 33.6% |
| C=CC(=O)N1CCCC(n2c(=O)c3ncccc3n(Cc3ccc(Oc4ccccc4)cc3)c2=O)C1 (stereo not drawn) | Chloride intracellular channel protein 1 (CLIC1, Homo sapiens, UniProt O00299) | thermal proteome profiling | cell proteome | treated | – | melting temperature | 54.6 °C and 51.7 °C |
| NS(=O)(=O)c1ccc(N2C(=O)c3ccc(N4CCOCC4)cc3C2=O)cc1 | Carbonic anhydrase 2 (CA2, Bos taurus, UniProt P00921) | binding | – | – | – | emission maximum | 533 nm |
| CC(=O)N(Cc1ccccc1)[C@@H](C)C(=O)N(C)[C@@H](C)C(=O)N(Cc1c[nH]c2ccccc12)[C@@H](C)C(=O)N(C)[C@@H](C)C(=O)N(CCC(C)C)[C@@H](C)C(N)=O | MDM2 | binding, fluorescence polarization competition | – | with: fluorescent PMI peptide | – | Hill coefficient | 1.06 ± 0.05 |
| CN(C)S(=O)(=O)c1ccc(S(=O)(=O)N2CCC(n3c(=O)[nH]c4ccccc43)CC2)cc1 | mfd, C-terminal domain (Escherichia coli, UniProt P30958) | phosphate release | – | 3.3 µM, 30 min, with: ATP 0.0024 mM | – | ATPase activity | 0.0282 µM phosphate |
| O=C(O)Cc1cc2c(cc1C(=O)c1cccc(Cl)c1)OCO2 | Gria2 | glutamate-evoked current, whole-cell patch clamp | HEK-293T | concentration not given, glutamate alone after washout, with: glutamate | – | current amplitude after recovery | 1250 ± 46 pA |
| CC(=O)N[C@@H](CC(C)C)C(=O)N[C@@H](CCC(N)=O)C(=O)N[C@@H](CCC(=O)O)C(=O)N[C@@H](CC(=O)O)C(=O)COC(=O)c1c(C)cccc1C | CASP7 | enzyme activity, inhibitor | – | – | – | kinact/KI | 400 M⁻¹ s⁻¹ |
| Cc1cc(-c2n[nH]cc2C(=O)Nc2ccc(C)c(F)c2)ccn1 | human kinase panel | binding, KINOMEscan | – | 10000 nM, %Ctrl below 10 | – | number of kinases hit | 0 |
| CCCCCC(O)/C=C/C=O (stereo not drawn) | Nebulette (NEBL, Homo sapiens, UniProt O76041) | ATP probe labelling, acylphosphate-ATP probe SILAC-ABPP | ZAK-transfected HEK293T proteome | 100 µM, 30 min | reference: DMSO over compound, higher = stronger blockade | SILAC-ABPP ratio | 20 |
| O=C(O)Cc1cc2c(cc1C(=O)c1ccccc1Br)OCO2 | Gria2 | glutamate-evoked current, whole-cell patch clamp | HEK-293T | concentration not given | reference: glutamate alone | current amplitude ratio | 4.98 ± 0.2 |
| COC1CN([C@H]2CC[C@H]([C@@]3(C)Oc4c(Cl)cc(C(=O)NCc5c(SC)cc(C)[nH]c5=O)c(C)c4O3)CC2)C1 | – | RNA-seq, refers to: EPOP mouse homolog | mouse, HT-1376 xenograft, whole blood | dose not given | reference: vehicle | log2 fold change | 0.577 |
| Cc1cc(C)cc(COc2cc3c(cc2OCc2cc(C)cc(C)c2)C2CC(O)(Cc4cn(CCOCCOCCNC(=O)CCCCC5SCC6NC(=O)NC65)nn4)CC(C)N2CC3)c1 (stereo not drawn) | Transgelin-2 (Homo sapiens, UniProt P37802) | biotinylated probe pull-down, refers to: TAGLN2 | – | 10 µM probe | reference: heavy over light | SILAC ratio | 2.3 |
| C=CC(=O)N1CCC(c2cc(C(=O)O)n(C)n2)CC1 | Fosb/Jund, ΔFosB bZIP domain (Mus musculus, UniProt P13346+P15066) | intact mass LC-MS, refers to: unmodified JUND bZIP | – | concentration not given | reference: total JUND species | relative abundance | 30.7% |
| Cc1ccc(-c2c[nH]nc2NC(=O)c2ccoc2C)cc1 | human kinase panel | binding, KINOMEscan | – | 10000 nM, %Ctrl below 35 | – | number of kinases hit | 0 |
| CC(=O)N1CCC[C@H]1C(=O)N[C@@H](CCC(N)=O)C(=O)N[C@@H](C)C(=O)N[C@@H](CC(=O)O)C(=O)COC(=O)c1c(C)cccc1C | CASP7 | enzyme activity, inhibitor | – | – | – | kinact/KI | 6900 M⁻¹ s⁻¹ |
| O=C(O)Cc1cc2c(cc1C(=O)c1cccc(I)c1)OCO2 | Gria2 | glutamate-evoked current, whole-cell patch clamp | HEK-293T | concentration not given | – | current amplitude | 345 ± 29 pA |
| Cc1ncsc1-c1ccc(C(C)NC(=O)C2CC(O)CN2C(=O)C(NC(=O)CCCCCCCCCCN2CCCC(Nc3ncc(Cl)c(Nc4ccccc4S(=O)(=O)C(C)C)n3)C2)C(C)(C)C)cc1 (stereo not drawn) | 22Rv1 | RNA-seq, refers to: ZHX2 mRNA | – | concentration not given | reference: DMSO | log2 fold change | -1.51 |
| Cn1c(=O)n(C2CCC(=O)NC2=O)c2ccc(C3CCN(CC(=O)Nc4cccc(CS(=O)(=O)N5CC[C@H](Nc6cccc(-c7sc(C(=O)O)c(OCC(=O)O)c7Cl)c6)CC5(C)C)c4)CC3)cc21 (stereo partly drawn) | Tyrosine-protein phosphatase non-receptor type 2 (Ptpn2, Mus musculus, UniProt Q06180) | degrader, Western blot | B16-F10 | 10 µM, with: DMSO pretreatment | – | remaining protein | 0% |
| O=C(N1CCCC1)n1cc(-c2ccc(-c3ccccc3)cc2)nn1 | Cytosolic acyl coenzyme A thioester hydrolase (Acot7, Mus musculus, UniProt Q91V12) | enzyme activity, inhibitor, competitive ABPP-SILAC, refers to: Acot7 | mouse T-cells | concentration not given, 4 h, treated in situ | reference: DMSO | activity ratio | 1.26 |

Excerpt of the above:
| Structure (SMILES) | target or system | assay | test system | conditions | how to read | measurement | result |
| --- | --- | --- | --- | --- | --- | --- | --- |
| C=CC(=O)Nc1cccc(Cn2ncc3cnc(Nc4cnn(CCOC)c4)nc32)c1 | TESK1 human | binding, KINOMEscan | – | 100 nM | lower = stronger binding | percent of control | 100% |
| COC1CN([C@H]2CC[C@H]([C@@]3(C)Oc4c(Cl)cc(C(=O)NCc5c(SC)cc(C)[nH]c5=O)c(C)c4O3)CC2)C1 | – | RNA-seq, refers to: EPOP mouse homolog | mouse, HT-1376 xenograft, whole blood | dose not given | reference: vehicle | log2 fold change | 0.577 |
| C[C@](O)(c1ccccc1)c1cn(C[C@H](NC(=O)OCC2c3ccccc3-c3ccccc32)C(=O)O)nn1 | MDM2 | thermal stability, DSF | – | 30 µM | – | ΔTm | 2.5 °C |
| NS(=O)(=O)c1ccc(N2C(=O)c3ccc(N4CCOCC4)cc3C2=O)cc1 | Carbonic anhydrase 2 (CA2, Bos taurus, UniProt P00921) | binding | – | – | – | emission maximum | 533 nm |
